Measurements from different studies.
Lines come from different studies, so protocols differ. Values joined by “and” are separate records of one study, mostly repeats; a detail may differ.
SCTR: Secretin receptor (SCTR, Homo sapiens, UniProt P47872)
Chain of UniProt P47872 (whole entry, looked up): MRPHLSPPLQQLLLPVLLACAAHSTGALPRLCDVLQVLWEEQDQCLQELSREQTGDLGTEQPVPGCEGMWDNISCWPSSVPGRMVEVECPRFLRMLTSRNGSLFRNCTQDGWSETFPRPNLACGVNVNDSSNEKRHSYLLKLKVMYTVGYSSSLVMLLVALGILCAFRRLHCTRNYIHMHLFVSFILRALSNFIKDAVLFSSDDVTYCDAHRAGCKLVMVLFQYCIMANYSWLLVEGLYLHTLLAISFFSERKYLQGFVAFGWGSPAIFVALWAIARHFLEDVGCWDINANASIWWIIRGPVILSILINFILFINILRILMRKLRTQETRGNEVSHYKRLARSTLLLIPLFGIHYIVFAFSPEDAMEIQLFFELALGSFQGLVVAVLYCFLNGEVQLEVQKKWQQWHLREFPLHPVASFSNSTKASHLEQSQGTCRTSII
G-protein coupled receptor 39: G-protein coupled receptor 39 (Mus musculus, UniProt Q5U431)
Chain of UniProt Q5U431 (whole entry, looked up): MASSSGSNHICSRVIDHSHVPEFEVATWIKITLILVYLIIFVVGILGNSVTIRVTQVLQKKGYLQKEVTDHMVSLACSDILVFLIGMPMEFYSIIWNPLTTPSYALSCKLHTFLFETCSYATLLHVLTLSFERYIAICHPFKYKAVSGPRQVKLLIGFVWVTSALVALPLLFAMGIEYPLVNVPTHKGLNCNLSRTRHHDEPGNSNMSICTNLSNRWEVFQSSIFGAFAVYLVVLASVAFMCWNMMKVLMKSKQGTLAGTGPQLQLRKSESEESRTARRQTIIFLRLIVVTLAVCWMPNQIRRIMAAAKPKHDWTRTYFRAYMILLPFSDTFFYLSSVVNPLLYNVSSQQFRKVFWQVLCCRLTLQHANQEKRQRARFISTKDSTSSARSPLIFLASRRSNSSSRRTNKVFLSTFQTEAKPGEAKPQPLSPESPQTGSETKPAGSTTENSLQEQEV
FPR2: N-formyl peptide receptor 2 (FPR2, Homo sapiens, UniProt P25090)
Chain of UniProt P25090 (whole entry, looked up): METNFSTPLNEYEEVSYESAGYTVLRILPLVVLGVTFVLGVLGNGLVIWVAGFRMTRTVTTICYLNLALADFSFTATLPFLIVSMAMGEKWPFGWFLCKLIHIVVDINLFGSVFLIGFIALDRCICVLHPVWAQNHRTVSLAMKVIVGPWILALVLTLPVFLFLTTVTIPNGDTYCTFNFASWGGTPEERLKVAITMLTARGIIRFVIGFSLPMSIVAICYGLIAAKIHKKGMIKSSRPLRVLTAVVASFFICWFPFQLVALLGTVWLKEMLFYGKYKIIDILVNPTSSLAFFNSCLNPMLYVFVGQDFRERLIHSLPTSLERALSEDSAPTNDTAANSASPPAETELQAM
RARG: Retinoic acid receptor gamma (RARG, Homo sapiens, UniProt P13631)
Chain of UniProt P34995 (whole entry, looked up): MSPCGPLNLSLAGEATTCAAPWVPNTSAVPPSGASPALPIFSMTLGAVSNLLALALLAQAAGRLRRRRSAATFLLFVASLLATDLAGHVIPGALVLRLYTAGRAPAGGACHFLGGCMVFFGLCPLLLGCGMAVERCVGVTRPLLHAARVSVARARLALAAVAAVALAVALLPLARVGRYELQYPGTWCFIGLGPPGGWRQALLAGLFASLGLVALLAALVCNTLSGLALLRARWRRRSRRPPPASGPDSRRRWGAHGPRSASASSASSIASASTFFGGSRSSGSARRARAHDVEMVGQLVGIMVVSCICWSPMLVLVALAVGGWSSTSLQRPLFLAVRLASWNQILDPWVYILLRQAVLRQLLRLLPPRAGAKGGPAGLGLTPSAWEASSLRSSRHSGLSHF
Chain of UniProt P13631 (whole entry, looked up): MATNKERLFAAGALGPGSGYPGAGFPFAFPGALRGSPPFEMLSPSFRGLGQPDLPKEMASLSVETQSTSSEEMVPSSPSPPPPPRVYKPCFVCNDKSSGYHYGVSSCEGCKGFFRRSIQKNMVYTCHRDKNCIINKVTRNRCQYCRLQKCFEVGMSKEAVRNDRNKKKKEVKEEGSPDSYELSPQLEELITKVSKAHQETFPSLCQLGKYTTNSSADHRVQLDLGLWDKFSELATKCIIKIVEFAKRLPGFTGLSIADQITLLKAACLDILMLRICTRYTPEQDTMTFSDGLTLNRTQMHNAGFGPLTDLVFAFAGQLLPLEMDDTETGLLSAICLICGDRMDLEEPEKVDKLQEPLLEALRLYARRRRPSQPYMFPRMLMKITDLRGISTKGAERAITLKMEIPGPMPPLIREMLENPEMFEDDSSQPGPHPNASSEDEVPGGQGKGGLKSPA
Chain of UniProt P0DMS8 (whole entry, unmodified, looked up): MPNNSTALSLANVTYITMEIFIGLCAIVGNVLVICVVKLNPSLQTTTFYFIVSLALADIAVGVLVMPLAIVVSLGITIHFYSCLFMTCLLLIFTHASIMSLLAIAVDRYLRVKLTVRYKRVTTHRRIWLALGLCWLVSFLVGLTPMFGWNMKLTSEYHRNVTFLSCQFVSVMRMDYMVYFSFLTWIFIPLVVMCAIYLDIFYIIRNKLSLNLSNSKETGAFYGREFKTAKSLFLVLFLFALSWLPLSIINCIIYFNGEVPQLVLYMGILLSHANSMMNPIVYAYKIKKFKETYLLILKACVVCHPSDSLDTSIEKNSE
Chain of UniProt P35869 (whole entry, looked up): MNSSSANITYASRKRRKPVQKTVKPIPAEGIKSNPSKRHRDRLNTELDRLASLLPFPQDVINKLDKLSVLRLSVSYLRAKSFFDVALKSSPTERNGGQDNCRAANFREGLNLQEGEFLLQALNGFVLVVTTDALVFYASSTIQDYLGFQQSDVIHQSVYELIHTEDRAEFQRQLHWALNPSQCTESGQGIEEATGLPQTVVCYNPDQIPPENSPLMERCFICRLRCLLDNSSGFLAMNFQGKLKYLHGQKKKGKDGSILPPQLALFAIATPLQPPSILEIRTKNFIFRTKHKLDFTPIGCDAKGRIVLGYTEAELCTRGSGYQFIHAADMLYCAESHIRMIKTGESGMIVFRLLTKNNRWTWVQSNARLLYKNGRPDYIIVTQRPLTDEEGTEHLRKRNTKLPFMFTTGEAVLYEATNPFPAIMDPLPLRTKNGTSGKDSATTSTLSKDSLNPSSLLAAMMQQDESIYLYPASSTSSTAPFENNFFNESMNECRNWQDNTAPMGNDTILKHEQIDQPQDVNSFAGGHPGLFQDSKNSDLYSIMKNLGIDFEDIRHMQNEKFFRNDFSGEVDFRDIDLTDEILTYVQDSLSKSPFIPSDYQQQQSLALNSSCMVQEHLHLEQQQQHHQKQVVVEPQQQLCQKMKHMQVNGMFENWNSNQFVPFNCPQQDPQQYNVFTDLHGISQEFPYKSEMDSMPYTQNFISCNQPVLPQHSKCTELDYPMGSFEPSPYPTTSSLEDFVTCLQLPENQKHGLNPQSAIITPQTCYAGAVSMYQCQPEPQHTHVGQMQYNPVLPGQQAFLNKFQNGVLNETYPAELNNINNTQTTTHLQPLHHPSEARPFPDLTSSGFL
Chain of UniProt P00520 (whole entry, looked up): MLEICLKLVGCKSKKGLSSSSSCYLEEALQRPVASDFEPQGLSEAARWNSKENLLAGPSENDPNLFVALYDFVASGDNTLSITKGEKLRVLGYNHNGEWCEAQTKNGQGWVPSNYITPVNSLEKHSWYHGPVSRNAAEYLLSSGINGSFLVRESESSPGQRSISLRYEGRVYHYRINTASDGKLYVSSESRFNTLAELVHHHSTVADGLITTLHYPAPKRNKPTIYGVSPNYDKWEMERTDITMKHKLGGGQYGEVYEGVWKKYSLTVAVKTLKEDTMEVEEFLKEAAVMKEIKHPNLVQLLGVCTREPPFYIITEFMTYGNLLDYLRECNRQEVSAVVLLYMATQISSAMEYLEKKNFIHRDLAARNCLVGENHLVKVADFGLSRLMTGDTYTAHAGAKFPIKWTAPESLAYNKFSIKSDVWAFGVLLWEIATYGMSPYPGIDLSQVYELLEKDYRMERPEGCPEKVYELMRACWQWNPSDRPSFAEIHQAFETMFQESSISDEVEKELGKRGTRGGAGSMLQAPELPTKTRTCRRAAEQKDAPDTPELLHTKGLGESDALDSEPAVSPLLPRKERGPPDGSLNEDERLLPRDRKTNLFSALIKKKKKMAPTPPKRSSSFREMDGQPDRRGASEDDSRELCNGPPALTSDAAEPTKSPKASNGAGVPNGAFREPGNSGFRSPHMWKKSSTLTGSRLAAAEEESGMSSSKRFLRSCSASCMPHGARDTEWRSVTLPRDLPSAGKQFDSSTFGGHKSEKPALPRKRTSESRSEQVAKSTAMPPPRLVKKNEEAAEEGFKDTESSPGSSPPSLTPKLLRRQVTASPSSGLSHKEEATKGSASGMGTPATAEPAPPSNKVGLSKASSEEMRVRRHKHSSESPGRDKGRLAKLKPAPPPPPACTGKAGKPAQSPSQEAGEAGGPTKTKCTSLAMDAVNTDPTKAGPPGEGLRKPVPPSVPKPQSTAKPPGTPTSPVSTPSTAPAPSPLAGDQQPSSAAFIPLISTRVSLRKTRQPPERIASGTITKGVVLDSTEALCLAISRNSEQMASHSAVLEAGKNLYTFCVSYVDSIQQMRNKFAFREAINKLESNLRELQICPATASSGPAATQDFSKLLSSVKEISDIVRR
Chain of UniProt Q8WZ84 (whole entry, unmodified, looked up): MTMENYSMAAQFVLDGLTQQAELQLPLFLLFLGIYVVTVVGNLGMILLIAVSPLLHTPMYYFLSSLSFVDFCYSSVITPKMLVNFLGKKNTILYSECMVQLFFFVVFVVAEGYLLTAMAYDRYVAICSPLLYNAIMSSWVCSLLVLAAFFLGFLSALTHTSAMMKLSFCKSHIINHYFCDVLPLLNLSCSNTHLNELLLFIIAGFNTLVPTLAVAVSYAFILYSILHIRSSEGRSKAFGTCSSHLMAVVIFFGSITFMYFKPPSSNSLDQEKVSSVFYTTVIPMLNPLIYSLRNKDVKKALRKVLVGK

`C=CC(=O)N1CCC(COCC(=O)N2CCN(c3nc(-c4cnc(N)nc4C(F)F)nc(N4CCOC[C@@H]4C)n3)CC2)CC1` has a remaining binding of 100% (STK17B (Homo sapiens, UniProt O94768); binding, competition with immobilised ligand; 1 µM).
For `CC(C)=CCNc1ncnc2c1ncn2[C@@H]1O[C@H](CO)[C@@H](O)[C@H]1O`, the EC50 was 0.66 µM (ADORA3 (Homo sapiens, UniProt P0DMS8, M174L); G protein activation, agonist).
`CC1=C(O)C(=O)OC1C` (centres unmarked) gave an EC50 of 11.5 µM (OR8D1 (Homo sapiens, UniProt Q8WZ84, K295A/R293A); cAMP, agonist, luciferase).
`CC1=NN(/C(=N/c2nnc(C)s2)Nc2ccc(C)c(C)c2)C(c2cccnc2)S1` (centres unmarked) has an EC50 of 23.6 µM (SCTR; cAMP, agonist, TR-FRET).
The EC50 of `C[C@H](CCC(=O)NCC(=O)O)[C@H]1CC[C@H]2[C@@H]3[C@@H](O)C[C@@H]4C[C@H](O)CC[C@]4(C)[C@H]3CC[C@]12C` is reported as over 200 µM (G-protein coupled receptor 39; calcium signal, agonist, fluorescence).
For `CC1=NN(/C(=N/c2nnc(C)s2)Nc2ccc(C)c(C)c2)C(c2ccc(-c3ccc(C(F)(F)F)cc3)cc2)S1` (centres unmarked), the EC50 was 0.1 µM (SCTR; cAMP, agonist, TR-FRET).
`CN(C)c1ncnc2c1ncn2[C@@H]1O[C@H](CO)[C@@H](O)[C@H]1O` has an EC50 of 2.4 µM (ADORA3 (Homo sapiens, UniProt P0DMS8, V169T); G protein activation, agonist).
With `N#Cc1ccc(C[C@H](Nc2c(Nc3ccc(Br)cc3)c(=O)c2=O)C(=O)N2CCc3ccccc32)cc1` the EC50 was 0.2 µM (FPR2; calcium signal, agonist).
`CCCNc1nc2c(N)nc3ccccc3c2s1` gave an EC50 of 4.06 µM (TLR8 (Homo sapiens, UniProt Q9NR97); reporter gene, agonist).
For `N#Cc1ccc(C[C@H](Nc2nnc(-c3cccc(Br)c3)s2)C(=O)N2CCc3ccccc32)cc1`, the EC50 was 13.6 µM (FPR2; calcium signal, agonist).
`C[C@H](CCC(=O)O)[C@H]1CC[C@H]2[C@@H]3[C@@H](O)C[C@@H]4C[C@H](O)CC[C@]4(C)[C@H]3CC[C@]12C` has an EC50 of over 200 µM (G-protein coupled receptor 39; calcium signal, agonist, fluorescence).
For `CCCCC[C@H](O)/C=C/[C@H]1[C@H](O)CC(=O)[C@@H]1C/C=C\CCCC(=O)O`, the EC50 was 0.00179 µM and 0.002 µM (PTGER1 (Homo sapiens, UniProt P34995); inositol phosphate, agonist, TR-FRET).
For `C[C@H](CCC(=O)O)[C@H]1CC[C@H]2[C@@H]3CC[C@@H]4C[C@H](O)CC[C@]4(C)[C@H]3CC[C@]12C`, the EC50 was over 200 µM (G-protein coupled receptor 39; calcium signal, agonist, fluorescence).
`Cc1ccc(C2=CCC(C)(C)c3cc(C(/C=C/c4ccc(C(=O)O)cc4)=N/O)ccc32)cc1` gave an EC50 of 0.0011 µM (RARG; reporter gene, antagonist, luciferase).
`CC(C)(C)c1ccc(COc2cccc(C(=O)O)c2)cc1` has an EC50 of 7 µM (Nuclear receptor subfamily 4 group A member 3 (Homo sapiens, UniProt Q92570); reporter gene, agonist).
The EC50 of `CC1=NN(/C(=N\c2ccc(C)c(C)c2)Nc2nnc(C)s2)C(c2ccc(C)cc2)S1` (centres unmarked) is reported as 0.9 µM (SCTR; cAMP, agonist, TR-FRET).
`N#Cc1ccc(C[C@H](NC(=O)c2cc3ccc(F)cc3[nH]2)C(=O)N2CCc3ccccc32)cc1` gave an EC50 of 15.1 µM (FPR2; calcium signal, agonist).
With `CCOc1c(Br)cc(C(=O)Nc2ccc(C(=O)O)cc2)cc1C(=O)c1ccc(C)cc1` the EC50 was over 5 µM (RARG; reporter gene, antagonist, luciferase).
With `CC1=NN(/C(=N/c2nnc(C)s2)Nc2ccc(C)c(C)c2)C(c2ccsc2)S1` (centres unmarked) the EC50 was 7 µM (SCTR; cAMP, agonist, TR-FRET).
With `N#Cc1ccc(C[C@H](Nc2nnc(-c3ccc(F)cc3)o2)C(=O)N2CCc3ccccc32)cc1` the EC50 was 1.2 µM (FPR2; calcium signal, agonist).
The EC50 of `CC1=NN(/C(=N\c2ccc(Br)cc2)Nc2nnc(C)s2)C(c2ccc(C)cc2)S1` (centres unmarked) is reported as 6.1 µM (SCTR; cAMP, agonist, TR-FRET).
The EC50 of `Cc1cc(Oc2ncccc2CN2CCN(c3ccccc3)CC2)ccc1-c1c(C)c(=O)[nH]c(=O)n1C` is reported as 89 µM (ADRA2C (Homo sapiens, UniProt P18825); cAMP, agonist, luciferase).
`COc1cc(-c2cncc3c2CN(C)Cc2cc(N4CCNCC4)ccc2-3)cc(OC)c1OC` has a remaining activity of 79% (Abl1 (Mus musculus, UniProt P00520); enzyme activity, inhibitor; 1 µM).
With `CC1=NN(/C(=N\c2ccc(OC(F)(F)F)cc2)Nc2nnc(C)s2)C(c2ccc(C)cc2)S1` (centres unmarked) the EC50 was over 50 µM (SCTR; cAMP, agonist, TR-FRET).
For `CNc1ncc2c(/C=C/C(=O)N3CCC(OC)CC3)nn(Cc3cccc(C(F)(F)F)c3)c2n1`, the remaining activity was 100% (Cyclin-dependent kinase 2, with cyclin E1 (CDK2, Homo sapiens, UniProt P24941); enzyme activity, inhibitor, radiometric; 1 µM).
`CC1=NN(/C(=N/c2nnc(C)s2)Nc2ccc(C)c(C)c2)C(c2ccc(C(F)(F)F)cc2)S1` (centres unmarked) has an EC50 of 0.3 µM (SCTR; cAMP, agonist, TR-FRET).
For `C[C@H](CCC(=O)NCCS(=O)(=O)O)[C@H]1CC[C@H]2[C@@H]3[C@@H](O)C[C@@H]4C[C@H](O)CC[C@]4(C)[C@H]3CC[C@]12C`, the EC50 was over 200 µM (G-protein coupled receptor 39; calcium signal, agonist, fluorescence).
`CC1=NN(/C(=N\c2ccccn2)Nc2nnc(C)s2)C(c2ccc(C)cc2)S1` (centres unmarked) has an EC50 of over 50 µM (SCTR; cAMP, agonist, TR-FRET).
The EC50 of `COC(=O)c1cccc(C(=O)c2c[nH]c3ncccc23)n1` is reported as 0.157 µM (AHR (Homo sapiens, UniProt P35869); reporter gene, agonist, luciferase).

Some of these lines once more:
`CC1=NN(/C(=N/c2nnc(C)s2)Nc2ccc(C)c(C)c2)C(c2ccc(C(F)(F)F)cc2)S1` (centres unmarked) has an EC50 of 0.3 µM (SCTR; cAMP, agonist, TR-FRET).
`COc1cc(-c2cncc3c2CN(C)Cc2cc(N4CCNCC4)ccc2-3)cc(OC)c1OC` has a remaining activity of 79% (Abl1 (Mus musculus, UniProt P00520); enzyme activity, inhibitor; 1 µM).
